Measured values gathered from unrelated publications.
A part holds a random share of what one study measured. Values joined by “and” are separate records of one study, mostly repeats; a detail may differ.

Sample 1
Target: Ras GTPase-activating protein-binding protein 1, full length (G3BP1, Homo sapiens, UniProt Q13283)
Chain of UniProt Q13283 (whole entry, looked up): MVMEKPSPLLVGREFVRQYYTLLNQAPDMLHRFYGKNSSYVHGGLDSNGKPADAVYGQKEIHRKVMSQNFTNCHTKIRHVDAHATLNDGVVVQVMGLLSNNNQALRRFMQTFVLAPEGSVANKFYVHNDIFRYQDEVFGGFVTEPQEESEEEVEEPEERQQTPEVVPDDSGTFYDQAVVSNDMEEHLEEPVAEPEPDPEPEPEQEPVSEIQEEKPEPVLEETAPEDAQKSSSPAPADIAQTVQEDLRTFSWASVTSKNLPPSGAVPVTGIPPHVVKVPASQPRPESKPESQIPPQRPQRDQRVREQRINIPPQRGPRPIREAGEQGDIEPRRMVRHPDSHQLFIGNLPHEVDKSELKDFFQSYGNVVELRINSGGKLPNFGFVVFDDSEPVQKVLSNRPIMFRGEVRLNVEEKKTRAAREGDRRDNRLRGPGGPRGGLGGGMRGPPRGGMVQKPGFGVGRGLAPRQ
Technique: RNA Bind-n-Seq
Molecule type: RNA
Sample: in vitro
Tested at: 200 nM
Setting: whole 134-nt RNA, ends assumed
With: 150 mM LiCl
Reference: input library
Direction: higher = stronger binding
Endpoint: log2 enrichment
All molecules: 7-deaza-guanosine replaces G
Constant ends, left off below: GGGAGUUCUACAGUCCGACGAUC … UGGAAUUCUCGGGUGUCAAGG
AUGAAGAUGAAGAAGAGGAUGAUGAGGACGAGGAUGACGACGACGACGAAGAUGAUGAAGAUGAUGAUGAUGAAGAUGAUGAGGAGGAGG: -0.104
CAAGUCCUGUGCUACACAUCGUAUGUACCGAAUCGGCCCCGGCCCCGGCCCCGGGAAAGUAUUAUGUUACGCCGUUCGGAUCUGCACUUC: -0.181
UGGCCCUGGUGGCAUGCGGGGAGGAAGAGGUGGCCUCAUGGAUCGUGGUGGUCCCGGUUGAAUGUUCAGAGGUGGCCGUGGUGGAGACAG: -0.0322
CUGUGCUACACAUCGUAUGUACCGAAUCGGGGUUUUUUUGGUUUUUUUGGGUUUUUUUGGGAAAGUAUUAUGUUACGCCGUUCGGAUCUG: 0.819
AAGUCCUGUGCUACACAUCGUAUGUACCGAAUCGGGUUUGGGAAAAAGGGUUUGGGAAAGUAUUAUGUUACGCCGUUCGGAUCUGCACUU: -1.86
UCAAGUCCUGUGCUACACAUCGUAUGUACCGAAUCGGGUGGGAAAAAGGGAGGGAAAGUAUUAUGUUACGCCGUUCGGAUCUGCACUUCC: -0.16
UCCUGUGCUACACAUCGUAUGUACCGAAUCAAACCCAAACCCCCCCAAACCCCCCCAAAAAAGUAUUAUGUUACGCCGUUCGGAUCUGCA: 0.132
UGGGAGGUGGAUUUUGUUUAUUUUUUUAGCUCAUUUCCAGGGGUGGGAAUUCUUUUUUAAUAUGUGUCAUGAAUAAAGUUGUUUUUGAAA: -0.0589

Sample 2
Organism: SARS-CoV-2
Observed: cytopathic effect
Cells: Vero E6
Tested at: 10 µM
Endpoint: inhibition
CCCC[C@H](NC(=O)[C@@H]1[C@@H]2[C@H](CN1C(=O)[C@@H](NC(=O)NC1(CS(=O)(=O)C(C)(C)C)CCCCC1)C(C)(C)C)C2(C)C)C(=O)C(=O)NC1CC1: 2.8%
CNC(=O)ON(C(C)=O)C(=O)NC: -2.6%
FC(F)(F)c1cc(NC(=S)Nc2ccc(Br)cc2-c2nnn[nH]2)cc(C(F)(F)F)c1: 25.4%
CS/C(N)=C(C#N)/C(C#N)=C(\N)SC: -0.9%
O=C(C=Cc1ccc(O)c2c1C(C(=O)OC(Cc1ccc(O)c(O)c1)C(=O)O)C(c1ccc(O)c(O)c1)O2)OC(Cc1ccc(O)c(O)c1)C(=O)O (stereo not shown): -5.1%

Sample 3
Cell line: HEK-293T/ACE2
Tested at: concentration not given
Time: 16 (unit not given)
Reference: vehicle
Endpoint: viability
CC(C)CC(N(C)C)C1(c2ccc(Cl)cc2)CCC1 (stereo not shown): 99.7%
C=CC1=C(C(=O)O)N2C(=O)[C@@H](NC(=O)/C(=N\O)c3csc(N)n3)[C@H]2SC1: 100%
O=C1CC[C@@]2(O)[C@H]3Cc4ccc(O)c5c4[C@@]2(CCN3CC2CC2)[C@H]1O5: 101%
CC1=C(CC(=O)O)c2cc(F)ccc2/C1=C\c1ccc([S+](C)[O-])cc1 (stereo not shown): 101%

Sample 4
Target: Replicase polyprotein 1ab, nsp13 helicase (rep, Severe acute respiratory syndrome coronavirus 2, UniProt P0DTD1)
Action: inhibitor
Tested at: 20 µM
Endpoint: inhibition
C[C@]12CC[C@@H]3c4ccc(O)cc4CC[C@H]3[C@@H]1CC[C@@H]2OC(=O)CCC1CCCC1: 0%
CC[C@@H](Cc1c(I)cc(I)c(N)c1I)C(=O)O: 1.83%
CC(C)C[C@H](NC(=O)[C@@H]1CCCN1)C(=O)NCC(N)=O: 6.09%
C[n+]1cc2c3c(ccc2c2ccc4cc5c(cc4c21)OCO5)OCO3: 102%
NC1=N[C@@](c2cccc(-c3cncnc3)c2)(c2ccnc(C(F)F)c2)c2cccc(F)c21: -5.14%
CC(C)C[C@H](NC(=O)OCC1c2ccccc2-c2ccccc21)C(=O)O: -2.46% and 0.9%
S=C(NC1CCCCC1)N1CCC(c2cnc[nH]2)CC1: -1.99%
C[C@]12CC[C@H](O)C[C@H]1CC[C@@H]1[C@@H]2CC[C@]2(C)[C@@H](C3=CC(=O)OC3)CC[C@]12O: 0.6%
CCc1cc(C(C)=O)c(O)cc1OCCCCCC(C)(C)c1nn[nH]n1: 7.19%
CCCCCCCCC(=O)NCc1ccc(O)c(OC)c1: 4.31%
CCN1CCCC(OC(=O)C(c2ccccc2)c2ccccc2)C1 (stereo not shown): -1.02%
CN[C@H]1C[C@@H](N)[C@H](O)[C@@H](O[C@@H]2O[C@H](CO)[C@H](O)[C@@H]3OC4(O[C@H]23)O[C@H]([C@@H](N)CO)[C@H](O)[C@H](O)[C@H]4O)[C@@H]1O (stereo partly shown): 2.97%
CC[C@H]1OC(=O)[C@H](C)[C@@H](O[C@H]2C[C@@](C)(OC)[C@@H](O)[C@H](C)O2)[C@H](C)[C@@H](O[C@@H]2O[C@H](C)C[C@H](N(C)C)[C@H]2O)[C@](C)(OC)C[C@@H](C)C(=O)[C@H](C)[C@@H](O)[C@]1(C)O: 2.77%
Nc1ncnc2c1ncn2[C@@H]1O[C@H](C[C@@H](N)CC[C@H](N)C(=O)O)[C@@H](O)[C@H]1O: 12.9%
Nc1ncnc2nc(-c3ccc(N4CCOCC4)nc3)cc(-c3cccc(Br)c3)c12: 4.19%
NC(=O)Cc1cccc(C(=O)c2ccccc2)c1N: 4.73%
CCN(CC)CCCCNc1ncc2cc(-c3cc(OC)cc(OC)c3)c(NC(=O)NC(C)(C)C)nc2n1: 4.9%
C[N+]1(C)[C@@H]2CC[C@H]1C[C@@H](OC(=O)C(O)c1ccccc1)C2 (stereo partly shown): 9.15%
NC(=NCCCCCCN=C(N)/N=C(\N)Nc1ccc(Cl)cc1)/N=C(\N)Nc1ccc(Cl)cc1: 4.56%
CCCCCCCCCCCCCCCCNc1ccc(C(=O)O)cc1: -18%
CN1C(=O)N(c2cc(Cl)cc(Cl)c2)C(=O)[C@@]1(C)Cc1ccc(Br)cc1: -0.49%
O=C(Nc1cc(-c2ccccc2)nn1-c1ccccc1)c1ccc([N+](=O)[O-])cc1: 0.87%
CS(=O)(=O)CS(=O)(=O)OCCCl: 6.03%
CC(=O)O[C@H]1C[C@H](O[C@H]2[C@@H](O)C[C@H](O[C@H]3[C@@H](O)C[C@H](O[C@H]4CC[C@@]5(C)[C@H](CC[C@@H]6[C@@H]5C[C@@H](O)[C@]5(C)[C@@H](C7=CC(=O)OC7)CC[C@]65O)C4)O[C@@H]3C)O[C@@H]2C)O[C@H](C)[C@H]1O[C@@H]1O[C@H](CO)[C@@H](O)[C@H](O)[C@H]1O: 6.63%

Sample 5
Target: RING finger protein unkempt homolog, zinc fingers 1-6, GST-SBP tag (UNK, Homo sapiens, UniProt Q9C0B0, residues 30-357)
Chain of UniProt Q9C0B0 (30-357, looked up): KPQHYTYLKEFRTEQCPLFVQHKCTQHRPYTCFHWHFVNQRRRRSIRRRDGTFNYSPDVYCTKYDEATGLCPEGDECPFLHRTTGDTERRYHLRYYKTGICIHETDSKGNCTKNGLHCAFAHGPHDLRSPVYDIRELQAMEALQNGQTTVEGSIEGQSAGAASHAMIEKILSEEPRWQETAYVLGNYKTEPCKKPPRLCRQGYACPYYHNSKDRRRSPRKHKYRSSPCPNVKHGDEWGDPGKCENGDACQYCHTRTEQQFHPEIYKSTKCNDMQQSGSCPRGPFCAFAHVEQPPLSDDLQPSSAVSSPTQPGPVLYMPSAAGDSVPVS
Technique: RNA Bind-n-Seq
Molecule type: RNA
Sample: in vitro
Tested at: not given
Setting: RNA with constant flanks, human-mouse chimeric sites, ends assumed
Reference: input RNA pool
Direction: higher = stronger binding
Endpoint: bound/input enrichment
Constant ends, left off below: GGGAGUUCUACAGUCCGACGAUC … CAACAGAGGAUUGAGCAUCA
CACAGAGCAGCACCUACCCCCUCCUCCUUUCCACACCUGCAAACUCUUUUACUUGGGCUGAAUAUUUAGUGUAAUUACAUCUCAGCUUUUGAGGGCUCUGUGGCAAAAUACCCGGAUAAA: 1.26 ratio
AGAUUCCCUCUCUUAAAGCCUUCUCCAAAGUUGGAGUCUCUUACAGAUGCCUCAUCCCCUGUUAGCGUUUUAGUUUGGACCACCCAGCCUUGGACAAUUCCCGCCAACCAGGCAAUUUGC: 0.729 ratio
UUAAUCCCCUUCGUUGCUCCCCCACUUCUCAUGGUAAUAACAAAGUCUUAUAUCCCCGUCCUAGCUUUCACUCAGAUGGCUUAUGGAGCCGGUUUCCUAGCUUUCUUGGGUGGGAUCAGA: 0.404 ratio
CAGGGCAUCAUCUCUCGUGCUGUUAGACACCUGUUCAAGAGUAUUGAAGAAAAAAAAACCUCAGCGAUUAAAAAUGGGCUGCCCCCUCCUGAAUUCAAAGUGAAUGCCCAGUUCCUAGAG: 0.637 ratio
GAUGAUAAUCACACAAACAAGUCACUGUUACAUGACCAGCCUUGGGAUUCUUCUCCUGAUUAGUAUUCUCCCUGGAACCACUGGUCAAGGGGAAUCAAGACGACAAGAACCCGGGGACUU: 0.203 ratio
AAAGCCCAAGUAUUUUGAAAAAAUUCAAACAGAUUUGUCAAGGGUAACCAGCUUGGAGUCUAGCAACUUGCCAAUGUGUUUACCAAUCUGGGGGCUUGUUUUUCUUUUCUUCUUUCAAAU: 0.397 ratio
CGCUGGCCCAAGCUGAUGGACUCUGAUGGCCUCCAUCUCUCAGGCACGUGUGCCUUCUCUUAGUCCCUGUUUUCGGGAUGUUAUGAAUCUCAGUACUGUUUGACAGAAGCAGUUAUGUUG: 0.177 ratio
UAACCACAUCAAGAUGGUUGGGAAGCUGAAGCAGAACUUACUCUUGGCAUGUCUGGUGAUUAGUUCUGUGACCGUGUUUUACCUGGGCCAGCAUGCCAUGGAGUGCCAUCACCGGAUAGA: 0.219 ratio

Some of these lines once more (sample 3):
CC(C)CC(N(C)C)C1(c2ccc(Cl)cc2)CCC1 (stereo not shown): 99.7%
O=C1CC[C@@]2(O)[C@H]3Cc4ccc(O)c5c4[C@@]2(CCN3CC2CC2)[C@H]1O5: 101%
CC1=C(CC(=O)O)c2cc(F)ccc2/C1=C\c1ccc([S+](C)[O-])cc1 (stereo not shown): 101%
